Experimental data from different studies.
Parts stem from different laboratories: compare values within a part only. Substitutions count along the parent as printed.

Block 1
Target: Sal-like protein 4, full length isoform B (SALL4, Homo sapiens, UniProt Q9UJQ4-2, residues 1-616)
Technique: universal PBM
Molecule type: double-stranded DNA, one strand shown
Medium: in vitro
Concentration: not given
Setting: 8-mer, flanks averaged, mean of replicates
Reading: higher = stronger binding
Strand | E-score
CGTACGAA | 0.0678
CCAACAGC | -0.194
AGTTTAAT | 0.257
AGCGAATC | 0.0554
CAGATAGG | 0.035
ACTTTACC | 0.216
GTACCAAC | -0.0595
AAAACCGG | -0.208
CTATCATC | 0.194
GCGTCGCA | -0.13
CTACCAAG | -0.0732
CGTAAACG | -0.15
AACAGTGA | 0.0907
AACAAAGC | 0.194
CATTGGTC | -0.0402
AAGCAGTA | 0.13
CGGCGAAA | -0.0959

Block 2
Target: Centromere-binding protein 1, full length, N-terminal tag (CBF1, Saccharomyces cerevisiae, UniProt P17106, residues 1-351)
Chain of UniProt P17106 (whole entry, looked up): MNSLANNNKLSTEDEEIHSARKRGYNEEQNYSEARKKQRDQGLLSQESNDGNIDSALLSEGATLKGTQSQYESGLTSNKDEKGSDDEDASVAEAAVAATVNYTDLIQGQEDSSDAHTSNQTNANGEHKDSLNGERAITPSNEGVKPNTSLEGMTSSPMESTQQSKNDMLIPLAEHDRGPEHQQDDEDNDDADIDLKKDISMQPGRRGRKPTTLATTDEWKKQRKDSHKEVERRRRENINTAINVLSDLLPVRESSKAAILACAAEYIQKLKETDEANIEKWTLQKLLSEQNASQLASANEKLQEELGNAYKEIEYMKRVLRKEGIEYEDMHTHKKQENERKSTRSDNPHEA
Technique: protein-binding microarray
Molecule type: double-stranded DNA, one strand shown
Medium: in vitro
Concentration: 0.8 µM
Setting: whole 60-bp probe, no competitor
Reading: higher = stronger binding
Shared flanks, not repeated: … GTCTTGATTCGCTTGACGCTGCTG
Strand | fluorescence intensity
GAATCTGGACCTGCTAACGTGTTTCATCTTCTTTAG | 519 a.u.
GAAGGAGAAAATAAACGCGTGAGCAGTAGCTGATAG | 599 a.u.
CTAGTTCTTGTACACGTGGAAACGCCCGATATATTC | 3410 a.u.
CTAAAAAGTGCGCATCACGATTTATCATCCTTCTTC | 550 a.u.
GAAGTAATTAATAGTGACATGAGTTGCTATGGTTAG | 522 a.u.
CTATAGAATATTAGAAACGTGCATGCCTACAATTTC | 697 a.u.
GAACGAGTTGTATGTCTCGTGATTCAGGTACTATAG | 2370 a.u.
CTAATAACGACATGTCAGGTGGTACTGTAAGTTTTC | 1190 a.u.
CTAAAGCATCTGGATCACCAGTACAAACAGTTATTC | 539 a.u.
GAACGTTCATTGAAGGTGATGGTATCGGACCTGTAG | 479 a.u.
GAATTTCGTTGAAGTGATGTTACCTCATACAATTAG | 508 a.u.
CTATCGCTATTTCGTGACAACGTTCCAGGACACTTC | 578 a.u.
GAACCTTGGGAAACGCACGCGCGAAGGAGGAAATAG | 573 a.u.
GAAATGGCGTGGGGTGGGGTGATTATCTAGACCTAG | 573 a.u.
CTAAAGAAGGTGAGCGTGATGGCGTAAATAATATTC | 624 a.u.
CCTAACTACTATATTCACGGGAAATAGCTTCGTACA | 507 a.u.

Block 3
Target: ABI1, truncated, D143A, DHFR fusion (Arabidopsis thaliana)
Technique: DHFR PCA, deep sequencing
Medium: yeast
Setting: methotrexate growth selection, single substitutions
With: (+)-ABA 17 µM
Baseline: wild-type fitted maximum
Reading: higher = stronger binding
Starting sequence: PYL1, truncated, DHFR fusion (Arabidopsis thaliana); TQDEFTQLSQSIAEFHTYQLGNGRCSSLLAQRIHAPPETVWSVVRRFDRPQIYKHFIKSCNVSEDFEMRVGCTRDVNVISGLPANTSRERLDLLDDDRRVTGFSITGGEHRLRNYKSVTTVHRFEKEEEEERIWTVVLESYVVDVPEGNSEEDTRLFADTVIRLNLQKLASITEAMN
Variant | relative binding score
V62K | 13.1%
R132D | 113%
L93M | 72.9%
Q31G | 6.13%
V40C | 12.8%
G71W | 7.38%
E128W | 76.6%
Q167I | 66.4%
P146Q | 10.2%
D95C | 53.5%
I52E | 79.7%
R123G | 98%
W41I | -23.6%
D95T | -3.38%
E139F | 5.98%
S150K | 39%
T154G | -4.61%
V43C | 47%
G107V | -5.59%
V121Q | 3.04%

Block 4
Target: CCNB2, cyclin fold, Cln2 fusion (human)
Technique: yeast growth competition, sequencing
Medium: yeast
Setting: weak parent motif
Baseline: not given
Reading: higher = stronger binding
Starting sequence: WEE1 docking peptide (human); HKTFRKLRLFDTP; partner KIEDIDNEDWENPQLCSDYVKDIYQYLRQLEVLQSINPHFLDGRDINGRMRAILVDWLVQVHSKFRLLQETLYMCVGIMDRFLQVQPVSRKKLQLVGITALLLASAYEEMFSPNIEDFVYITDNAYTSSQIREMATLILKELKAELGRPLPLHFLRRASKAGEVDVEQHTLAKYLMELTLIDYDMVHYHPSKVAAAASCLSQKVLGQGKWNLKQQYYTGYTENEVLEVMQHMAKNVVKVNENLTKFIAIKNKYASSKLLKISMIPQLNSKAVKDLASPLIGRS
Variant | normalised enrichment score
HETFRKLRLFDTP [K2E] | 0.304
HKTFRTLRLFDTP [K6T] | 0.688
HKTFRKLDLFDTP [R8D] | 0.309
HKTKRKLRLFDTP [F4K] | 0.582
HKTFRKLRLFDTF [P13F] | 0.633
HKTFRKLRLFVTP [D11V] | 0.417
HKTFRKLRLFDHP [T12H] | 0.36
FKTFRKLRLFDTP [H1F] | -0.173
HKTFRKLRLFATP [D11A] | 0.273
HKTFRKLRLFDGP [T12G] | 1.29
HKTFWKLRLFDTP [R5W] | 0.503
HKTFRKLYLFDTP [R8Y] | 0.704
HVTFRKLRLFDTP [K2V] | 0.607
HKTFRKLRLFDAP [T12A] | 0.701
HKTFRKLRLFWTP [D11W] | 0.21
HKTFRKLRLYDTP [F10Y] | 0.319
HKTFRKLRTFDTP [L9T] | 0.447
HKTFRKLRLFDTD [P13D] | 0.664
HKTFDKLRLFDTP [R5D] | 0.266
HKTFRKLKLFDTP [R8K] | 0.898
WKTFRKLRLFDTP [H1W] | 0.922
HKTMRKLRLFDTP [F4M] | 0.951
HKTFRGLRLFDTP [K6G] | 0.427
HKTDRKLRLFDTP [F4D] | 0.379
HKTFVKLRLFDTP [R5V] | -0.348

Repeated from above (block 4):
Variant | normalised enrichment score
HKTFRKLRLFATP [D11A] | 0.273
HKTFRKLRLFDGP [T12G] | 1.29
HKTFWKLRLFDTP [R5W] | 0.503
HKTFRKLYLFDTP [R8Y] | 0.704
HVTFRKLRLFDTP [K2V] | 0.607
HKTFRKLRLFDAP [T12A] | 0.701
HKTFRKLRLFWTP [D11W] | 0.21
HKTFRKLRLYDTP [F10Y] | 0.319
HKTFRKLRTFDTP [L9T] | 0.447
HKTFRKLRLFDTD [P13D] | 0.664
HKTFDKLRLFDTP [R5D] | 0.266
